Results gathered from unrelated publications.
Each numbered part is a random draw from the data of one study; scales do not carry over between parts.
Chain of UniProt Q9UK32 (whole entry, looked up): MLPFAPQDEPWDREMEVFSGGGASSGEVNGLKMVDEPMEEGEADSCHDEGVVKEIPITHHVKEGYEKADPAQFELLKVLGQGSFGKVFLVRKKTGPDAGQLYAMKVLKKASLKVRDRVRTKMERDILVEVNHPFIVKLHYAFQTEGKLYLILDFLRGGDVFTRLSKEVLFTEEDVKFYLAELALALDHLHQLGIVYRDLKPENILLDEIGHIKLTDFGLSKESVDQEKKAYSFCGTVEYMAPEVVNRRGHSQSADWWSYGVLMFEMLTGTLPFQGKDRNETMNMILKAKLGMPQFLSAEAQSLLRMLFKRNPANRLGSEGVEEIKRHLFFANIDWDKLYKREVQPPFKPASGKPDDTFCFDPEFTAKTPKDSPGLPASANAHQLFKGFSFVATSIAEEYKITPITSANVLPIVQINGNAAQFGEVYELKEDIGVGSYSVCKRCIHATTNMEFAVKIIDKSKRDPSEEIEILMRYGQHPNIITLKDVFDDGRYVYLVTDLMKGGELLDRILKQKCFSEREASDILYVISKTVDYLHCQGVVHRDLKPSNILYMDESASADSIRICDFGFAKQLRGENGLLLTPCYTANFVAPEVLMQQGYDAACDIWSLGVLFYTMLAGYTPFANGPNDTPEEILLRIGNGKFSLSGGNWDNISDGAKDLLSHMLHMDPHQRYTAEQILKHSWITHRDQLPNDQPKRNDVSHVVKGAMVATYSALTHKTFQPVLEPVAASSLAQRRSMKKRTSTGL

Block 1 — technique: protein-binding microarray; form: double-stranded DNA, one strand shown; matrix: in vitro; concentration: not given; direction: higher = stronger binding
Target: Transcription factor Sp1 (SP1, Homo sapiens, UniProt P08047, residues 1-785, full length assumed)
Chain of UniProt P08047 (whole entry, looked up): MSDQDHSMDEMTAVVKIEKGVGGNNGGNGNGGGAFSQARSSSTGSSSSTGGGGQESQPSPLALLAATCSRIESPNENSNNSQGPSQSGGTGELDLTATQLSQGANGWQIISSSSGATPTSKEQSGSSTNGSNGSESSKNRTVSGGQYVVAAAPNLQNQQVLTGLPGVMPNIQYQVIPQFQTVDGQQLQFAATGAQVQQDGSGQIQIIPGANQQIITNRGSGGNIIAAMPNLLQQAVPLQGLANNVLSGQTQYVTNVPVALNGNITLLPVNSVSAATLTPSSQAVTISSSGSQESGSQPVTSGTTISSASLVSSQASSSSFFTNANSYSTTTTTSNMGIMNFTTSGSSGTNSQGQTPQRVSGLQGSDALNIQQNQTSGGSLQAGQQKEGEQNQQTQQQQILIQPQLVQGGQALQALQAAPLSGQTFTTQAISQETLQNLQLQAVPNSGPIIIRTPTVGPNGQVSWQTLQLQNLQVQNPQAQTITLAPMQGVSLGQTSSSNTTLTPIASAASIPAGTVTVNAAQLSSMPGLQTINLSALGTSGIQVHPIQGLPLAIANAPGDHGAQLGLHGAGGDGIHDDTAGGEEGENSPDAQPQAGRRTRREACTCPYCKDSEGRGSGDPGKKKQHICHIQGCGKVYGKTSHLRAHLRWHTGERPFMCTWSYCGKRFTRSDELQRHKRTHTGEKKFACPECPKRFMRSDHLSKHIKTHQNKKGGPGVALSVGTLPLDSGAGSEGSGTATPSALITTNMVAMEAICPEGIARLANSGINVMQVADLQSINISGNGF
Notes: k-mer, scored over probes, only values ≥0.25
`GCCACACC` has an E-score of 0.303.
`GGGAGTGA` gave an E-score of 0.267.
For `CGGGGAAC`, the E-score was 0.281.
With `ATGTTTAC` the E-score was 0.26.
`AAATGGTA` has an E-score of 0.31.
`CAACTCCC` gave an E-score of 0.259.
With `AGGGTTAT` the E-score was 0.291.
For `ACATTGTC`, the E-score was 0.261.

Block 2 — technique: RNA Bind-n-Seq; form: RNA; matrix: in vitro; concentration: 90 pmol; notes: 4-mer, random 30-nt RNA, single round; reference: input library; direction: higher = stronger binding
Target: Eukaryotic initiation factor 4A-I (EIF4A1, Homo sapiens, UniProt P60842, residues 1-406, full length assumed)
Chain of UniProt P60842 (whole entry, looked up): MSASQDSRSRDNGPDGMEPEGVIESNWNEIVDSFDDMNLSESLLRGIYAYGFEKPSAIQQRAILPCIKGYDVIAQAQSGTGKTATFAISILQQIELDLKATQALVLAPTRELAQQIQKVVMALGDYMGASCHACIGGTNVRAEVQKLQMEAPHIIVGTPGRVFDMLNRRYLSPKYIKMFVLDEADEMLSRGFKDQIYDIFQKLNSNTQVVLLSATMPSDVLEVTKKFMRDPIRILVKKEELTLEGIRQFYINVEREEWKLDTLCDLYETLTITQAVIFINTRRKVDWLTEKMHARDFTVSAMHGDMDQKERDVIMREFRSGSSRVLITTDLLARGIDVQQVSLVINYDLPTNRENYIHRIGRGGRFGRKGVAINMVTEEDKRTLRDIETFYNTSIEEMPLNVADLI
With: 3 µM iPr-DMDA-PatA, 2 mM ADP, 2 mM phosphate
`CUUG` has a 4-mer enrichment of 0.849 fold.
`CUCC` has a 4-mer enrichment of 0.92 fold.
The 4-mer enrichment of `UGAA` is reported as 1.31 fold.
With `AAAC` the 4-mer enrichment was 1.46 fold.
With `GGCG` the 4-mer enrichment was 0.629 fold.
With `GUAU` the 4-mer enrichment was 1.07 fold.
With `AUAC` the 4-mer enrichment was 1.27 fold.
`AACG` gave a 4-mer enrichment of 1.17 fold.

Block 3 — technique: EMSA with sequencing; form: double-stranded DNA, one strand shown; matrix: in vitro; concentration: 10 and 20 nM; reference: negative control set to 0; direction: higher = stronger binding
Target: Hepatocyte nuclear factor 3-alpha (Foxa1, Mus musculus, UniProt P35582, residues 1-468, full length assumed)
Notes: whole designed probe, mean of two concentrations, ends assumed
Constant ends, left off below: GTGAGCGGTGCCCATTGATGGGGAAC … TTTCACTGGGATCGTGGGGAC
Construct (chain): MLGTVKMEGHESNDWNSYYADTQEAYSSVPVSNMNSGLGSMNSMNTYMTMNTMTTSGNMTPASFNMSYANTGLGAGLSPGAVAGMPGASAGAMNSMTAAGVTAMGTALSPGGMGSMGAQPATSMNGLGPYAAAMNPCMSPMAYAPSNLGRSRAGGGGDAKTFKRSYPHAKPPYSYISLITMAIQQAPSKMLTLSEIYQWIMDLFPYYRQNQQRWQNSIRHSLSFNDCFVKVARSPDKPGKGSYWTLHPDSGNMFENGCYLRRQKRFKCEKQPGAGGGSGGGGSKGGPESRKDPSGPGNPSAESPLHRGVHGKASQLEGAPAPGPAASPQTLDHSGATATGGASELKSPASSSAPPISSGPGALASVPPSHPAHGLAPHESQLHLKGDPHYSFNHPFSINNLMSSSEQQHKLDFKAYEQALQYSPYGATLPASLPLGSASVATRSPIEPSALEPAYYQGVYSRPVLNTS
Under “normalised bound fraction”, `AAGTTATTACATAATGATAAAGGGGCTGATTCAGCAAGAAGATACAAGTATAAATATATATGCAATCAACACTGGAGCACCCAGATATATAAAGTAAATATTATCAGAGCTAAAGAGAGAGAGACCTCAGTACAATAATAGCTAGAGACTTTAACACCCCACCTTCAGCAACGGACATATCTCCCAGACAGAA` is recorded as 0.568 ratio.
For `AATTCACATAAGTTCATTTTTATTGACTTAGTCAGTGCCAGCACTTATACCCATTTTCTACTTATCGGTGACATGAGTTAAGACACCTGACAATGTAAACAGCAATATGATCTCATTTGTGTGGATGATTTAAAATTTTATGTAAAGTTGTGATTTTTCAAGCCATCCTCAGTTTAGGGATATCTCCTTGAGC`, “normalised bound fraction” read 0.447 ratio.
`ATCTTCCCCCTCTTCCTTGCCCCACCAGCTCACCTTCCCGGGTTGTTTACTTTGAGCAAAGTAAACAAAGCCGGCATTCGTTAACCCTCTTCTGGCGCAAACTGCACATTGGTCTGGATGAATCATGGTCCTTTGGCGACGCCAGGCTCCGGGAGAGCAAAGCACCGTGTCAGGGCCATGATCCGGGGTGGCC` — result for “normalised bound fraction”: 0.501 ratio.
Under “normalised bound fraction”, `ATCTTCCCCCTCTTCCTTTTTTTTTCAGCTCACCTTCCCGGGTTATTTGCAGATAGGAAAATAAATAAAGCCGGCATTCGTTAACCCTCTTCTGGCGCAAACTGCTGTTTGCTCTGGATGAATCATGGTCCTTTGGCGACGCCAGGCTCCGGGAGAGCAAAGCACCGTGTCAGGGCCATGATCCGGGGTGGCC` is recorded as 0.316 ratio.
Under “normalised bound fraction”, `CTAGCTCCAGTCTTAGCATGGCAATTTCTTCCCGCAACATACTATTTTCATGCAAGAAGTCTCTTTCTTTCTTACAACTAAGAGAAAGCTAAGTAATCTAAGAGAACTTTTAGTTAGCACTCAATAGATTGACATAACATGATTTCTTTTGAAATTCAAAAATAACATGTATTTGTATAATGAAAGAATCCCC` is recorded as 0.114 ratio.
`CTGTATCCATCTGGGCAGTATCTTCTCTGGGCCTGGCCTGTCATAGGTGCTTCAGGTTTCCCCATTTGAACCAGATACCAGTCGGGTTACCGGATGTTTGCTTAAAATGAGTCATAGGCTTCCTGCTATTCCTGTGCTGCTTCCAGCTAGGACTGATCGAATCAGTCTGGATTTTCCTTGGGGTGATCCGCAG`: “normalised bound fraction” 0.135 ratio.
For `ATAAATGAGATTCTTTGAATCTACATAACTGGTCAAGATAATAAATGCATTAGGAATTCCCAGAGGATAGGCAGTTTGGGACTGAGATCACTGTGTAATCTTGAAGATGCAGGTTGAAGTAGACTTTTATTAAAATTTGAGCTAAAGTGGATAAGGTTCAGATAGACTACAGTATGGGGTGGACACTGTATTA`, “normalised bound fraction” read -0.0267 ratio.
`TCTTTCCCCTTCTATGACTTGCAAATTTATATTTCTCTTAACAACCATAAAAACAACTACAGTTGCTGAAGAAATAATGACTCAGAAAGCAAAAGATTACTTTTAAATATGAGCAACTTTACATCTAATGCCAATGCCTGATAAAGAGAAATTTATAGTAATCTAAAAATATGGCCAAAATCACTTATTTAGC` — result for “normalised bound fraction”: 0.00159 ratio.

Mixed results
The remaining activity of `Cc1cncc2cccc(S(=O)(=O)N3CCCN(C(=O)CN)C[C@@H]3C)c12` is reported as 105% (Ribosomal protein S6 kinase alpha-6 (RPS6KA6, Homo sapiens, UniProt Q9UK32); enzyme activity, inhibitor; 0.5 µM; reference: control).

Excerpt of the above (block 3):
`CTGTATCCATCTGGGCAGTATCTTCTCTGGGCCTGGCCTGTCATAGGTGCTTCAGGTTTCCCCATTTGAACCAGATACCAGTCGGGTTACCGGATGTTTGCTTAAAATGAGTCATAGGCTTCCTGCTATTCCTGTGCTGCTTCCAGCTAGGACTGATCGAATCAGTCTGGATTTTCCTTGGGGTGATCCGCAG`: “normalised bound fraction” 0.135 ratio.
